Published values gathered from unrelated publications.
Lines come from different studies, so protocols differ. Several values in a cell are separate wells, animals, samples, runs or records.
Target: Prostaglandin G/H synthase 2 (PTGS2, Homo sapiens, UniProt P35354)

Compound	test	conditions	scale	measurement	value
CCc1nnc(-c2c(OC)cc(-c3cnc4cc(-c5cnn(C)c5)ccn34)cc2OC)o1	radioligand binding	10 µM, SafetyScreen44 mean	lower = stronger displacement	remaining binding	95.4%
C[C@@H]1COCCN1c1nc(NCc2cccnc2C(F)(F)F)c2cccnc2n1	inhibitor			IC50	44 µM
CCOC(=O)[C@](CC)(CCCSCCOCCOCCNC(=O)c1ccc(-c2c3ccc(=N)c(S(=O)(=O)O)c-3oc3c(S(=O)(=O)O)c(N)ccc23)c(C(=O)O)c1)NC(=O)c1ccc(C2CC2)c(Cc2ccc(F)cc2)n1	enzyme activity, inhibitor	10 µM		inhibition	-5%
Cc1cc(-c2ccc3ccccc3c2)nnc1NCCN1CCN(C)CC1	enzyme activity	concentration not given		inhibition	negative
C[C@H](NCc1ccc(-c2ccc(C(F)(F)F)cc2)cc1)C(N)=O	enzyme activity, SafetyScreen panel	1 µM, with: 0.30 µM arachidonic acid		inhibition	-11%
O=C(COC(=O)c1ccccc1Nc1cccc(C(F)(F)F)c1)Nc1cccc(C(F)(F)F)c1			relative to: COX-1 IC50 over COX-2 IC50	selectivity ratio	5.68
N[C@H](C(=O)N1CCCC1)C1CCN(c2nccc3c(-c4ncc(Cl)cc4Cl)cccc23)CC1	enzyme activity, inhibitor	10 µM		inhibition	23%
O=C(O)c1ccc(-c2nc(-c3ccccc3Cl)c3sccn23)cc1	radioligand binding, safety screen panel	10 µM	relative to: control	specific binding	112% and 105%
Cc1cc(Nc2nc(C[C@@]3(C(=O)O)CCN(Cc4cccc(Cl)c4F)[C@H](C)C3)cc(C)c2F)[nH]n1	enzyme activity, inhibitor	10 µM		inhibition	-15.8%
CS(C)(=O)=Nc1ccc(-c2ccc(-c3nc4cc(O[C@@H]5CO[C@H]6[C@@H]5OC[C@H]6O)[nH]c4cc3F)cc2)cc1	enzyme activity, inhibitor	10 µM		inhibition	27%
CCN(CC)CCOc1ccc(-c2nnn(Cc3ccc(OC)cc3)c2N)cc1	enzyme activity	10 µM		inhibition	-5.68%
COc1ccc(F)cc1S(=O)(=O)Nc1cnc2c(c1)C(=O)NCCO2	enzyme activity, inhibitor	10 µM		inhibition	6%
Cc1ccc2c(n1)c(-c1cccc(S(C)(=O)=O)c1)c(C)n2C/C(F)=C/CN	cell-free assay	10 µM		inhibition	-18%
C/C(=N\OCCCN1CCCCC1)c1ccc(C(F)(F)F)cc1	antagonist, FI	10 µM		inhibition	13.9%

Excerpt of the above:
Compound	test	conditions	scale	measurement	value
O=C(COC(=O)c1ccccc1Nc1cccc(C(F)(F)F)c1)Nc1cccc(C(F)(F)F)c1			relative to: COX-1 IC50 over COX-2 IC50	selectivity ratio	5.68
N[C@H](C(=O)N1CCCC1)C1CCN(c2nccc3c(-c4ncc(Cl)cc4Cl)cccc23)CC1	enzyme activity, inhibitor	10 µM		inhibition	23%
